Published values pooled from the literature.
Numbered parts are unrelated; each lists some results of a single study.
Chain of UniProt Q99558 (whole entry, looked up): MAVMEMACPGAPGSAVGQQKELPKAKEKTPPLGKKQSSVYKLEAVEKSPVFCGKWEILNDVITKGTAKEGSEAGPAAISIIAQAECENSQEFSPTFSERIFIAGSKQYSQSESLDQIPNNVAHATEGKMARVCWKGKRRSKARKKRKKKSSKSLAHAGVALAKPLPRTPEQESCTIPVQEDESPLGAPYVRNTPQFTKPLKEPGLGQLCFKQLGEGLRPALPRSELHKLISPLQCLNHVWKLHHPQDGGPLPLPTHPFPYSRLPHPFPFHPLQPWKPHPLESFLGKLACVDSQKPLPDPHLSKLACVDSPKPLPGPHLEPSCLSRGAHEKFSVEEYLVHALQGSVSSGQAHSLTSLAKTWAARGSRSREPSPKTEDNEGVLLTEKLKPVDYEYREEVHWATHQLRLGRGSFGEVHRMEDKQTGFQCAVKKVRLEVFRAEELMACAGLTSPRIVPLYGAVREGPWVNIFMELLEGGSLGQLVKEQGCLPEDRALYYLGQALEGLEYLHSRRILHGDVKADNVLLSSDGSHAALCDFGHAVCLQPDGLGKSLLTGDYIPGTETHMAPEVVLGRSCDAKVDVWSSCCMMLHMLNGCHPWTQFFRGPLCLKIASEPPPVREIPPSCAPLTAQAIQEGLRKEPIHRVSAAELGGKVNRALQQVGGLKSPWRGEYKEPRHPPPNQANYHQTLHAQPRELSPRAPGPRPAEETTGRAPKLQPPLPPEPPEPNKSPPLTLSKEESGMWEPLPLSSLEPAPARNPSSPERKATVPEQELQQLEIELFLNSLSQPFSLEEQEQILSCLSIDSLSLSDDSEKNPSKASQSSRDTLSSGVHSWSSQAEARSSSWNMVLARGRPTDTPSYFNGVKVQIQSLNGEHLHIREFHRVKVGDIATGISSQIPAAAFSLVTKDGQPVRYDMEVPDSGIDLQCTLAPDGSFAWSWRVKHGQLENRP
Chain of UniProt Q16566 (whole entry, looked up): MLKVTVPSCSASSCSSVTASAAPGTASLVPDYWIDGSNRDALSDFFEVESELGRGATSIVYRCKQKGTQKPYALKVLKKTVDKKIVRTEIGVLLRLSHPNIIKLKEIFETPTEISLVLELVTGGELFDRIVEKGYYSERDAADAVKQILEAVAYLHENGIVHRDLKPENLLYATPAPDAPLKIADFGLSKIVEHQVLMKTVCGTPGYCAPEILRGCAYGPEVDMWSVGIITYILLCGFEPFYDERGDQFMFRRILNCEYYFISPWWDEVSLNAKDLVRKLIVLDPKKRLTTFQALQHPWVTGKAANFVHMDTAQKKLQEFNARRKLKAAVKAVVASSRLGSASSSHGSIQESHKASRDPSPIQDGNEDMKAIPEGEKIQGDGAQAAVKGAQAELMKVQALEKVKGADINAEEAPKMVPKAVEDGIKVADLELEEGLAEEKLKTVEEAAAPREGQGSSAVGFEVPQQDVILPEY
Chain of UniProt P07948 (whole entry, looked up): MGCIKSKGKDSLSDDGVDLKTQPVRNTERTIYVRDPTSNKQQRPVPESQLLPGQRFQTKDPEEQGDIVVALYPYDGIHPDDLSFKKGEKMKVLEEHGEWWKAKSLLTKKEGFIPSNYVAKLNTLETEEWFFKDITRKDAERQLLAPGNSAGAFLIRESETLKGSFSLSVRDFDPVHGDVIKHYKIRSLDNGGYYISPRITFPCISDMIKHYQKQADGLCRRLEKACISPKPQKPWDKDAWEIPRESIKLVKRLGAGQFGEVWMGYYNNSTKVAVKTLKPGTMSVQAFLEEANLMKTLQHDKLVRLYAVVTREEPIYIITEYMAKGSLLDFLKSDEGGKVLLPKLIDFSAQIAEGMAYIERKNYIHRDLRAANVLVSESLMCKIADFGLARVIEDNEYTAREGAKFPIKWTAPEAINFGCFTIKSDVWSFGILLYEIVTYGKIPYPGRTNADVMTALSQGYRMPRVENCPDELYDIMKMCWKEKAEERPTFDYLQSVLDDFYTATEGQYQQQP
Chain of UniProt Q8NEV4 (whole entry, looked up): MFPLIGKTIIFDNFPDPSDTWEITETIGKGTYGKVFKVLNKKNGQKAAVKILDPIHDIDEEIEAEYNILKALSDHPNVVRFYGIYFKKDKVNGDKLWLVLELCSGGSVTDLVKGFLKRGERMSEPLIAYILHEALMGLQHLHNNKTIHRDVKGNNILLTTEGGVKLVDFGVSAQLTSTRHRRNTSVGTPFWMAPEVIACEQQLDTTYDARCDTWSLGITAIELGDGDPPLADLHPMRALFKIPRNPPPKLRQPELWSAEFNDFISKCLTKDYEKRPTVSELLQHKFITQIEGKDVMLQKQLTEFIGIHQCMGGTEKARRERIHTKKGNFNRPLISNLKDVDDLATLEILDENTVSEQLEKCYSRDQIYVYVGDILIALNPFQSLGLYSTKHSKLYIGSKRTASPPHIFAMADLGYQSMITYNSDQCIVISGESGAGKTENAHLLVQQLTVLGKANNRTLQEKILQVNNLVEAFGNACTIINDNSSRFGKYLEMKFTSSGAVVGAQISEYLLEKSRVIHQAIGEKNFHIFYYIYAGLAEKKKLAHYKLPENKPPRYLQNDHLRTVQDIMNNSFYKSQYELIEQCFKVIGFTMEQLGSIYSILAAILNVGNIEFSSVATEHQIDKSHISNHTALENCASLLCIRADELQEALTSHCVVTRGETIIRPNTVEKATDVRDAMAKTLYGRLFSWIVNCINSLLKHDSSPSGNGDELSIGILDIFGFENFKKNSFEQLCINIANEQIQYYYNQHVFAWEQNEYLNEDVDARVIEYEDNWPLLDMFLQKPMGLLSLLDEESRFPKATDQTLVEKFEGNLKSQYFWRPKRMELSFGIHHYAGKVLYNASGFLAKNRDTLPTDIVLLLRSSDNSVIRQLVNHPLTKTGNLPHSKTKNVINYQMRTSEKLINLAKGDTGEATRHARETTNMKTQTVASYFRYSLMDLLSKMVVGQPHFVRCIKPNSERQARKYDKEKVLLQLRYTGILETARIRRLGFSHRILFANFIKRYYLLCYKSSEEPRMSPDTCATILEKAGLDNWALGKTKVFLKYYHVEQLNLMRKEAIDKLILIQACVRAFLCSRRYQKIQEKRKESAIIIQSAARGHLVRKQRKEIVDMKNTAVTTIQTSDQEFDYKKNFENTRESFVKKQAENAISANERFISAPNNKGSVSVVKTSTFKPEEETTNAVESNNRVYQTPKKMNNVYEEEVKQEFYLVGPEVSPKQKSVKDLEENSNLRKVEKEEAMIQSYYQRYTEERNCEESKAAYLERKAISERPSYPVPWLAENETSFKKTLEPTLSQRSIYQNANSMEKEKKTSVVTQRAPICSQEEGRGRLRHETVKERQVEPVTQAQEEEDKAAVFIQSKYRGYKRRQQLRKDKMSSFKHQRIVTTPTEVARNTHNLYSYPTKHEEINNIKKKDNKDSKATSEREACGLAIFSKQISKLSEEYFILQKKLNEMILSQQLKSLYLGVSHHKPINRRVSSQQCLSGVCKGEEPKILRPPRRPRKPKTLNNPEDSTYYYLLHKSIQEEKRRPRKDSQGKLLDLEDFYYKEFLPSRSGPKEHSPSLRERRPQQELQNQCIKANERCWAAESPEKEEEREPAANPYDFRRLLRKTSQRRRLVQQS
Chain of UniProt P51812 (whole entry, looked up): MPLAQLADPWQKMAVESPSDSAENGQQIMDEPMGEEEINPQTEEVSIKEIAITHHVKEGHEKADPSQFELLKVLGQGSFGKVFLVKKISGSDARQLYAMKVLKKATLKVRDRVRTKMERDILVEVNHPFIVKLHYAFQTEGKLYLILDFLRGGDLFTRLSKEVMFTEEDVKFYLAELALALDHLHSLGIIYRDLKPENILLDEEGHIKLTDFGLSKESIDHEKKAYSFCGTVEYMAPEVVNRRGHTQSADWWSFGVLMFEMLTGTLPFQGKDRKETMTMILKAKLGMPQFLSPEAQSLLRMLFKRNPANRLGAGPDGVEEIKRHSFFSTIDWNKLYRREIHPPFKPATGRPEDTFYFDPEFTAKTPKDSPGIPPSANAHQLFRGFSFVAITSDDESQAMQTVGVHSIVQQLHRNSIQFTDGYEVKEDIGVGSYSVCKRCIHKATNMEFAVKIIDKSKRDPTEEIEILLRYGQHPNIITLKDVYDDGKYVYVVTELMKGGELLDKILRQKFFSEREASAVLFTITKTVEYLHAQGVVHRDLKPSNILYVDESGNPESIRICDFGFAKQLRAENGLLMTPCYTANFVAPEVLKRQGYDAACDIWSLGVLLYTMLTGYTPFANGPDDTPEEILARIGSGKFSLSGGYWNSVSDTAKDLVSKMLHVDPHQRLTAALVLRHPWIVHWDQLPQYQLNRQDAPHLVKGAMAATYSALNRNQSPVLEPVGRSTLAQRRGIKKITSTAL
Chain of UniProt O94921 (whole entry, looked up): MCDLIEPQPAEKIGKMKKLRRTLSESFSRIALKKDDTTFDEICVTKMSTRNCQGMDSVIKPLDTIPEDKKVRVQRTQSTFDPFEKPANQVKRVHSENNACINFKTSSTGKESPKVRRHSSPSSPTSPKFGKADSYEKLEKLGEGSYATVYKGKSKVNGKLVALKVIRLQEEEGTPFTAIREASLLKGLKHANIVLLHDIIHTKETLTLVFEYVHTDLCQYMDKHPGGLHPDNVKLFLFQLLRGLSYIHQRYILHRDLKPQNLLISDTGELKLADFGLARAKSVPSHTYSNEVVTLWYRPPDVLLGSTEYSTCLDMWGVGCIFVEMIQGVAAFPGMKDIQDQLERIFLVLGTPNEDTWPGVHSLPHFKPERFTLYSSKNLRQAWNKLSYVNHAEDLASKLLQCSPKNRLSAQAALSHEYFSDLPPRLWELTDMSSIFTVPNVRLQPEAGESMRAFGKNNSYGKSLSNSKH

Block 1 — tested at: 1 µM
Structure (SMILES): NS(=O)(=O)c1cc(NC(=O)C2(c3ccccc3Cl)CC2)ccc1Oc1cccc(Cl)c1
| target | assay | remaining binding [%] |
| --- | --- | --- |
| HIPK3 (Homo sapiens, UniProt Q9H422) | cell-free assay, competition with immobilised ligand | 100 |
| WEE2 (Homo sapiens, UniProt P0C1S8) | cell-free assay, competition with immobilised ligand | 74 |
| CDKL2 (Homo sapiens, UniProt Q92772) | binding, competition with immobilised ligand | 94 |
| SIK1 (Homo sapiens, UniProt P57059) | competition binding | 71 |
| RIPK4 (Homo sapiens, UniProt P57078) | cell-free assay, competition with immobilised ligand | 100 |
| Ribosomal protein S6 kinase alpha-3, C-terminal kinase domain (RPS6KA3, Homo sapiens, UniProt P51812) | cell-free assay, competition with immobilised ligand | 92 |
| CAMK2B (Homo sapiens, UniProt Q13554) | cell-free assay, competition with immobilised ligand | 100 |
| PAK1 (Homo sapiens, UniProt Q13153) | cell-free assay, competition with immobilised ligand | 79 |
| STK32A (Homo sapiens, UniProt Q8WU08) | cell-free assay, competition with immobilised ligand | 90 |
| Aurora kinase B (AURKB, Homo sapiens, UniProt Q96GD4) | cell-free assay, competition with immobilised ligand | 84 |
| Myosin-IIIa (MYO3A, Homo sapiens, UniProt Q8NEV4) | binding, competition with immobilised ligand | 93 |
| FER (Homo sapiens, UniProt P16591) | cell-free assay, competition with immobilised ligand | 83 |
| MAPKAPK5 (Homo sapiens, UniProt Q8IW41) | cell-free assay, competition with immobilised ligand | 89 |
| CDK14 (Homo sapiens, UniProt O94921) | cell-free assay, competition with immobilised ligand | 63 |
| LYN (Homo sapiens, UniProt P07948) | cell-free assay, competition with immobilised ligand | 83 |
| Tyrosine-protein kinase ABL1, phosphorylated (ABL1, Homo sapiens, UniProt P00519, Y253F) | cell-free assay, competition with immobilised ligand | 69 |
| DAPK3 (Homo sapiens, UniProt O43293) | cell-free assay, competition with immobilised ligand | 100 |
| ALK (Homo sapiens, UniProt Q9UM73, C1156Y) | cell-free assay, competition with immobilised ligand | 100 |
| FLT3 (Homo sapiens, UniProt P36888) | cell-free assay, competition with immobilised ligand | 100 |
| ACVR2B (Homo sapiens, UniProt Q13705) | binding, competition with immobilised ligand | 90 |

Block 2 — sample: EL4 tumour; dose: dose not given; baseline: vehicle
SMILES: CC(=O)N[C@@H](Cc1c[nH]c2ccccc12)C(=O)N[C@@H](CCC(=O)C=[N+]=[N-])C(=O)OC(C)C
| assay | system | log2 fold change |
| --- | --- | --- |
| measured: gamma-glutamylvaline | mouse, EL4 tumour-bearing | -0.0498 |
| measured: erythritol | mouse, EL4 tumour-bearing | 0.155 |
| measured: orotidine | mouse, EL4 tumour-bearing | 0.751 |
| measured: N-acetylneuraminate | mouse, EL4 tumour-bearing | -0.0639 |
| metabolomics, measured: guanosine 3'-monophosphate | mouse | 1.36 |
| measured: gamma-glutamyltyrosine | mouse, EL4 tumour-bearing | -0.287 |
| measured: thiamin monophosphate | Mus musculus | 1.09 |
| measured: UDP-glucuronate | mouse, EL4 tumour-bearing | -0.124 |
| measured: homocysteine | mouse, EL4 tumour-bearing | -2.49 |

Block 3 — organism: Sarcocystis neurona; observed: parasite growth; tested at: 10 µM; notes: secondary screen
| Structure (SMILES) | inhibition [%] |
| --- | --- |
| COc1cc(N)c(Cl)cc1C(=O)NC1CCN(CCCOc2ccc(F)cc2)CC1OC.O (stereo not drawn) | -22 |
| OCCN1CCN(CCCN2c3ccccc3Sc3ccc(Cl)cc32)CC1 | 84.5 |
| CC(C)(S)[C@@H](N)C(=O)O | -17 |
| COC(=O)C1=C(C)NC(C)=C(C(=O)O[C@@H]2CCCN(Cc3ccccc3)C2)[C@@H]1c1cccc([N+](=O)[O-])c1.Cl (racemic) | 8.4 |
| C[C@@H]1C[C@H]2[C@@H]3CCC4=CC(=O)C=C[C@]4(C)[C@@]3(F)[C@@H](O)C[C@]2(C)[C@H]1C(=O)CO | 2.7 |
| CC(C)c1ccc2c(c1)c(SC(C)(C)C)c(CC(C)(C)C(=O)O)n2Cc1ccc(Cl)cc1 | -0.117 |
| CO/N=C(\C(=O)N[C@@H]1C(=O)N2C(C(=O)O)=C(COC(N)=O)CS[C@H]12)c1ccco1 | -38.4 |
| Cc1nc2ccccn2c(=O)c1CCN1CCC(C(=O)c2ccc(F)cc2)CC1 | 12.3 |

Block 4 — observed: binding; tested at: 1 µM
Structure (SMILES): COc1ccc2[nH]c3c4[nH]c5ccc(OC)cc5c4c4c(c3c2c1)C(=O)NC4=O
| target | assay | remaining binding [%] |
| --- | --- | --- |
| CAMK4 (Homo sapiens, UniProt Q16566) | – | 98 |
| CDC42BPA (Homo sapiens, UniProt Q5VT25) | competition with immobilised ligand | 76 |
| SRPK3 (Homo sapiens, UniProt Q9UPE1) | – | 100 |
| KIT (Homo sapiens, UniProt P10721) | competition with immobilised ligand | 24 |
| EPHA1 (Homo sapiens, UniProt P21709) | competition with immobilised ligand | 93 |
| SGK2 (Homo sapiens, UniProt Q9HBY8) | – | 46 |
| STK32C (Homo sapiens, UniProt Q86UX6) | – | 84 |
| MAP3K14 (Homo sapiens, UniProt Q99558) | – | 20 |
